Measured values pooled from the literature.

Substance	tested on	test	test system	setting	how to read	quantity	result
TLDSKTQSL		AIM	peptide, CD8+ T cells from PBMC, human donors	HLA-A*02:01 restricted, unit not given	reference: positive over tested donors	frequency of responding donors	17
CCCC(C)NC(=O)c1ccc(Cl)c(Cl)c1 (centres unmarked)	Replicase polyprotein 1ab, main protease (rep, Severe acute respiratory syndrome coronavirus 2, UniProt P0DTD1)	viral replication, Gluc reporter	SARS-CoV-2	20 µM		inhibition	3.75%
GVPINTNSSPDDQIG	human CD4 T cells	AIM	peptide			responding donors	8%
CC[C@H](C)[C@H](NC(=O)[C@H](CC(C)C)NC(=O)[C@H](Cc1c[nH]c2ccccc12)NC(=O)[C@H](CCC(N)=O)NC(=O)[C@@H](NC(=O)[C@H](Cc1ccccc1)NC(=O)[C@H](C)NC(=O)[C@H](CCCCNC(=O)COCCOCCNC(=O)COCCOCCNC(=O)CC[C@H](NC(=O)CCCCCCCCCCCCCCCCCCC(=O)O)C(=O)O)NC(=O)[C@H](CCC(N)=O)NC(=O)[C@H](C)NC(=O)[C@@H](NC(=O)[C@H](CCCCN)NC(=O)[C@H](CC(=O)O)NC(=O)[C@H](CC(C)C)NC(=O)C(C)(C)NC(=O)[C@@H](NC(=O)[C@H](CO)NC(=O)[C@H](Cc1ccc(O)cc1)NC(=O)[C@H](CC(=O)O)NC(=O)[C@H](CO)NC(=O)[C@@H](NC(=O)[C@H](Cc1ccccc1)NC(=O)[C@@H](NC(=O)CNC(=O)[C@H](CCC(=O)O)NC(=O)C(C)(C)NC(=O)[C@@H](N)Cc1ccc(O)cc1)[C@@H](C)O)[C@@H](C)O)[C@@H](C)CC)[C@@H](C)CC)C(C)C)C(=O)N[C@@H](C)C(=O)NCC(=O)NCC(=O)N1CCC[C@H]1C(=O)N[C@@H](CO)C(=O)N[C@@H](CO)C(=O)NCC(=O)N[C@@H](C)C(=O)N1CCC[C@H]1C(=O)N1CCC[C@H]1C(=O)N1CCC[C@H]1C(=O)N[C@@H](CO)C(N)=O			healthy subjects, single ascending dose	8.0 mg, day 29	reference: baseline	diastolic blood pressure change	3.71 mmHg
Nc1ncnc2c([C@@H]3N[C@H](CO)[C@@H](O)[C@H]3O)c[nH]c12	Marburg virus	viral replication, antibody staining	HeLa, Musoke	12.5 µM, 12 h		infected cells	2%

A few entries again:
Substance	tested on	test	test system	setting	how to read	quantity	result
Nc1ncnc2c([C@@H]3N[C@H](CO)[C@@H](O)[C@H]3O)c[nH]c12	Marburg virus	viral replication, antibody staining	HeLa, Musoke	12.5 µM, 12 h		infected cells	2%
